Measured values of several laboratories.
Parts stem from different laboratories: compare values within a part only.

Block 1
Target: RING finger protein unkempt homolog, zinc fingers 1-6, SBP tag (UNK, Homo sapiens, UniProt Q9C0B0, residues 30-357)
Chain of UniProt Q9C0B0 (30-357, looked up): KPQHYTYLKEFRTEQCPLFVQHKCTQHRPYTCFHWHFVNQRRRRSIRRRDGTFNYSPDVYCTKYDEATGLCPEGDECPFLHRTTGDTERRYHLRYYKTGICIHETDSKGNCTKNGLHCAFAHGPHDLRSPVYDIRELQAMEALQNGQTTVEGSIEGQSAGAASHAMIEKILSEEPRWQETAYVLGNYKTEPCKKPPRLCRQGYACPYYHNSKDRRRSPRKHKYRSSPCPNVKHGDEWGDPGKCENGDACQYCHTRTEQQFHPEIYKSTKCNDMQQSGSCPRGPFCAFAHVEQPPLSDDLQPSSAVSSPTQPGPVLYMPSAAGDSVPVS
Technique: RNA Bind-n-Seq
Molecule type: RNA
Medium: in vitro
Tested at: 100 nM
Setting: RNA with constant flanks, vertebrate orthologous sites, ends assumed
Relative to: input RNA pool
Direction: higher = stronger binding
With `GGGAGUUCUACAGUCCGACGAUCCAGCGGAUUCUCUAAUAGGGAGAGCUGCACACAUUGCUGUUCUUGAUUCAGAAAUAUUUUUAGAAAAGUUCUUUCUGGUUGCUGCCCUAAAAUAUUUCCAGUAGAAGAAAAGCAUUGUAACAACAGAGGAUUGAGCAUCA` the bound/input enrichment was 0.575 ratio.
`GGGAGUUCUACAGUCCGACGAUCCUACUAUAAACAACUCAGGGCAGUAUUCUCGCUAUCCUUACAGUAACCUAAAUCAGGGAUUAGUUAAUAAUACAGGGAUGAAUCAGAAUUUAGGCCUUACAAAUAACACUCCAAUGAAUCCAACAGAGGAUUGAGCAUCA` gave a bound/input enrichment of 1.06 ratio.
For `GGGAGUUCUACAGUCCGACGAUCCCUUUAUAGAGGGUAGUACAUGUUUCAUAAAGGAGAGUCUUUAUAGUUUUGUUUGUCAUAUAGUAUUUUGGAAUUUGUAUAAUGAGGAUGUUUAGAAGCCAUAUAAAUGGCUUUUUUUAACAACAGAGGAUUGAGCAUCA`, the bound/input enrichment was 1.3 ratio.
The bound/input enrichment of `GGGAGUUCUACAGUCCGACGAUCAUUCAAACCUGUGGUGCCAUGGCCUCAUGUGGAAGGAGUAGAAGUGGACUUAGAGUCUAUUAGAAGAAAAAACAAGGCCAAAAAUGAACAGGAGCACCAUGCUGGAGGAGAUUCCCAAAACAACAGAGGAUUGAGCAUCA` is reported as 0.416 ratio.
For `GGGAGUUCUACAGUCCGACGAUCGAGGGAGGUUUACUUCUUUCAACUUCAGUUUUUCAGGUUGUAGCUGAUCUGUUUUCUUUUUUUCUCUCCUCCUCGCUGUUCUUUUGCUUCCUUUCUGUCUCCCCAACUUCAAAUACACAACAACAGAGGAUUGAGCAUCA`, the bound/input enrichment was 0.804 ratio.
`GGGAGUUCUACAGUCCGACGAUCCUCUAUGGGCCUCGAAGAGUGGAAGUCAUGGAAGAGGAAAGUGAACAGUAAUCUUCAUUUUAGUAUUUAUGCUUAGGUGUGAAAUAAAUGUUUUUGUCGAUCUCUUCUAUAAUCCAGGGCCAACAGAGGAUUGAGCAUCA` gave a bound/input enrichment of 0.387 ratio.
`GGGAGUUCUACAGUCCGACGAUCAUUUAAAAUGUAGUUAGUUAUAUUUAAUGACCUCAUUCCUAAGUUCCUUUUUCGUUAAUGUAGCUUUCAUUUCUGUUAUUGCUGUUUGAAUAAUAUGGUUAAAUAGAAGGUUUGUGCCAGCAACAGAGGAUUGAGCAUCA` has a bound/input enrichment of 0.515 ratio.

Block 2
Target: PABPC1L2, full length, GST fusion (mouse, UniProt A0ABA7IW68)
Technique: RNAcompete
Molecule type: RNA
Medium: in vitro
Tested at: 20 nM
Setting: 7-mer, probes averaged, single round
Relative to: mean of 7-mers
Direction: higher = stronger binding
Residues (chain): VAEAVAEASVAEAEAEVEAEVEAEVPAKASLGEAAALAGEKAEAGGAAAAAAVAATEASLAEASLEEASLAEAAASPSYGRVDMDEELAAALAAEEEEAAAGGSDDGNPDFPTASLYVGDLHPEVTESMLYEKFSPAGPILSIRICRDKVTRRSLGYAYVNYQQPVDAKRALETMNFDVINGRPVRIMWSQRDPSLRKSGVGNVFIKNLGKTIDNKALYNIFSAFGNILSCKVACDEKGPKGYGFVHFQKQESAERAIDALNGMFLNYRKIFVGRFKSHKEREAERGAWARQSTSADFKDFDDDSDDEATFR
`UGAUUGA` has a 7-mer Z-score of -0.126.
The 7-mer Z-score of `ACUCUUA` is reported as -0.295.
`GUUAAUG` has a 7-mer Z-score of -0.289.
With `CAAAAGC` the 7-mer Z-score was 0.863.
`CUUGCUC` has a 7-mer Z-score of -0.465.
The 7-mer Z-score of `UAACUCC` is reported as -0.278.
`CUGCUGG` gave a 7-mer Z-score of -0.211.
The 7-mer Z-score of `UUACCCU` is reported as -0.262.
With `AGGCCCC` the 7-mer Z-score was -0.4.

Block 3
Target: Interferon regulatory factor 3, full length, phosphomimetic (IRF3, Homo sapiens, UniProt Q14653, residues 1-427, S386D/S396D/S398D/S402D/T404D/S405D)
Technique: protein-binding microarray
Molecule type: double-stranded DNA, one strand shown
Medium: in vitro
Tested at: 2540 nM top
Setting: 60-bp whole probe
With: salmon DNA 0.4 mg/ml
Relative to: random background probes
Direction: higher = stronger binding
All sequences stand within: GCCTAGCAC … GTCTTGATTCGCTTGACGCTGCTG
Construct (chain): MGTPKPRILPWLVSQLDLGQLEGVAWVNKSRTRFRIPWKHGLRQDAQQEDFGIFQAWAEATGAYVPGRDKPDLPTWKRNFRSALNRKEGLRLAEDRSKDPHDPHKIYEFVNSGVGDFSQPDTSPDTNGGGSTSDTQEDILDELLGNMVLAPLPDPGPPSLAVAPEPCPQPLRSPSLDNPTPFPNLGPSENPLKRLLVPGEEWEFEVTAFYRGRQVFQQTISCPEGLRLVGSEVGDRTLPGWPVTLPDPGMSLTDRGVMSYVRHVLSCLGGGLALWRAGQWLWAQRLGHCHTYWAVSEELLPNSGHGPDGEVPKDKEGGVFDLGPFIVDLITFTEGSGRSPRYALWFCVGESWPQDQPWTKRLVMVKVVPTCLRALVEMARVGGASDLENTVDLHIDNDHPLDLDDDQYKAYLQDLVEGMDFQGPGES
For `TTGGGACTGCTACTGCTTTAGTGCTAG`, “fitted relative affinity” read -1.22 z-score.
Under “fitted relative affinity”, `TAACTAATATTAAATATGTAGTGCTAG` is recorded as 0.326 z-score.
For `GACGGTTTCGGCTTCGGGACGTGCTAG`, “fitted relative affinity” read 3.86 z-score.
`GACGGTATCGGGTATCTGGACGTGCTA`: “fitted relative affinity” 1.46 z-score.
`GACGGGATCGGTCTCGGGACGTGCTAG` — result for “fitted relative affinity”: 0.984 z-score.
Under “fitted relative affinity”, `TCAGGTCTCGGACTGGGTTAGTGCTAG` is recorded as 0.388 z-score.
For `TTGGGACTGCTTCTCCTTTAGTGCTAG`, “fitted relative affinity” read -0.413 z-score.
Under “fitted relative affinity”, `ATAGGTCTCCTACTGCTTTAGTGCTAG` is recorded as 0.741 z-score.
Under “fitted relative affinity”, `TCAGATATCGGGTTTCGATTAGTGCTA` is recorded as 2.32 z-score.
Under “fitted relative affinity”, `TTAGGTTTCGGACTGGGTAAGTGCTAG` is recorded as 4.32 z-score.
For `TTAGGGATCCTACTGCTTTAGTGCTAG`, “fitted relative affinity” read 0.97 z-score.
`GTCGGTTTCGGGACTGGGGACGTGCTA`: “fitted relative affinity” 6.07 z-score.
Under “fitted relative affinity”, `TCAATTCTCTTCTTGCAACTGTGCTAG` is recorded as 1.71 z-score.

Further values, each from its own experiment
For `PhoQ, residues 284 288 289 292 302 303 AMDMFI`, the fold induction was 0.958 (PhoP, residues 12 14 15 18 19 AYFRS (Escherichia coli, UniProt P23836); Sort-seq, item: YFP reporter; E. coli; PhoQ-PhoP variant library, with: 10 µM Mg2+; relative to: high Mg2+ state, higher = stronger signaling).

Excerpt of the above (block 2):
With `AGGCCCC` the 7-mer Z-score was -0.4.
`GUUAAUG` has a 7-mer Z-score of -0.289.
`CUGCUGG` gave a 7-mer Z-score of -0.211.
